{"data": "Assay results of several laboratories", "note": "Parts stem from different laboratories: compare values within a part only."}
{"data": "Set 1", "target": "Eukaryotic initiation factor 4A-I (EIF4A1, Homo sapiens, UniProt P60842, residues 1-406, full length assumed)", "method": "RNA Bind-n-Seq", "form": "RNA", "matrix": "in vitro", "tested at": "90 pmol", "notes": "4-mer, random 30-nt RNA, single round", "with": "3 µM DMDA-PatA, 2 mM ADP, 2 mM phosphate", "baseline": "input library", "direction": "higher = stronger binding", "chain of UniProt P60842 (whole entry, looked up)": "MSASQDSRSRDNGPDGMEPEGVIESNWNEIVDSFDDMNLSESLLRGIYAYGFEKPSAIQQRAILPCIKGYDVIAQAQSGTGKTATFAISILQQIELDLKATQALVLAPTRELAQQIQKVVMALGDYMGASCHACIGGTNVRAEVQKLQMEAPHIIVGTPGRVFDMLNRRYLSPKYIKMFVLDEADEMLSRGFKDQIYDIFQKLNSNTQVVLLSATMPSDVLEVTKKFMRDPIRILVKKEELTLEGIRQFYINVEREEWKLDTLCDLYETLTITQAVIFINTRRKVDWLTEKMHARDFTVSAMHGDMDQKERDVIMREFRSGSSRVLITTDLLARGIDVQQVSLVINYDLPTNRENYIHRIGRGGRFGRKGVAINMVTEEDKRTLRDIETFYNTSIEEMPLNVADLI"}
{"Strand": "AAGG", "4-mer enrichment [fold]": 1.22}
{"Strand": "UAAU", "4-mer enrichment [fold]": 0.998}
{"Strand": "CCCC", "4-mer enrichment [fold]": 0.845}
{"Strand": "UGAU", "4-mer enrichment [fold]": 1.01}
{"Strand": "ACCG", "4-mer enrichment [fold]": 0.619}
{"Strand": "UUUC", "4-mer enrichment [fold]": 0.791}
{"Strand": "AGUA", "4-mer enrichment [fold]": 1.1}
{"Strand": "AGUU", "4-mer enrichment [fold]": 1.13}
{"data": "Set 2", "target": "POU domain, class 6, transcription factor 1, POU and homeodomain (POU6F1, Homo sapiens, UniProt Q14863, residues 311-611)", "method": "protein-binding microarray", "form": "hairpin DNA", "matrix": "in vitro", "tested at": "not given", "notes": "whole hairpin DNA, median over replicate spots", "baseline": "not given", "direction": "higher = stronger binding", "all sequences stand within": "GAGGCC … GGCCTCACACTCTT", "Construct (chain)": "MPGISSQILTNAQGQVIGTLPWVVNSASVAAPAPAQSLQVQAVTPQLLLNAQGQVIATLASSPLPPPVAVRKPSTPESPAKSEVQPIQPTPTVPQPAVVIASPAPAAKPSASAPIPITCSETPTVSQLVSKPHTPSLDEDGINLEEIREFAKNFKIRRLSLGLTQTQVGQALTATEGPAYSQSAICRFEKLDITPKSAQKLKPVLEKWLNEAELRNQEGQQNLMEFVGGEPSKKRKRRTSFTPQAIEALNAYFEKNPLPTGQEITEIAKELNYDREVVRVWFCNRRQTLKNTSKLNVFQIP"}
{"Strand": "ATCGTGAGGTGCCTCCTGGCACCTCACGAT (5mC at 9 33)", "median fluorescence [a.u.]": 322}
{"Strand": "ATAATTAGCGGCCTCCTGGCCGCTAATTAT (5mC at 27)", "median fluorescence [a.u.]": 1670}
{"Strand": "TTAATTAGGTGCCTCCTGGCACCTAATTAA", "median fluorescence [a.u.]": 1790}
{"Strand": "CGAATGAGGTGCCTCCTGGCACCTCATTCG (5mC at 7)", "median fluorescence [a.u.]": 386}
{"Strand": "AGAATGAGGTGCCTCCTGGCACCTCATTCT", "median fluorescence [a.u.]": 434}
{"Strand": "ATAATTAGTTGCCTCCTGGCAACTAATTAT", "median fluorescence [a.u.]": 2480}
{"Strand": "ATACTGAGGTGCCTCCTGGCACCTCAGTAT (5mC at 10)", "median fluorescence [a.u.]": 352}
{"Strand": "AAAATGAGGTGCCTCCTGGCACCTCATTTT", "median fluorescence [a.u.]": 779}
{"data": "Set 3", "target": "Max dimerization protein 1, bHLH-zipper, MAX partner unstated (MXD1, Homo sapiens, UniProt Q05195, residues 56-136)", "method": "protein-binding microarray", "form": "double-stranded DNA, one strand shown", "matrix": "in vitro", "tested at": "not given", "notes": "k-mer, scored over probes, only values ≥0.25", "direction": "higher = stronger binding", "Construct (chain)": "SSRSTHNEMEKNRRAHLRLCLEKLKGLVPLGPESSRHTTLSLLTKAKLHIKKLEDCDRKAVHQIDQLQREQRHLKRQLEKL"}
{"Strand": "ACGTGGGA", "E-score": 0.417}
{"Strand": "GCGTGATA", "E-score": 0.311}
{"Strand": "CCTTGCAC", "E-score": 0.26}
{"Strand": "ATCCACGC", "E-score": 0.306}
{"Strand": "CCCCATAC", "E-score": 0.266}
{"Strand": "ACATGGTC", "E-score": 0.406}
{"Strand": "AGGTGGCG", "E-score": 0.288}
{"Strand": "CGTGTACA", "E-score": 0.268}
{"data": "Single results of other studies"}
{"Sequence": "LRYGNVLDV", "target": "HLA class I histocompatibility antigen, A alpha chain, allele A*80:01 (Homo sapiens, UniProt P04439)", "effect on": "peptide-MHC binding", "form": "peptide", "tested at": "concentration not given", "measurement": "binding", "value": "inactive"}
{"note": "Excerpt of the above (set 3):"}
{"Strand": "ACGTGGGA", "E-score": 0.417}
{"Strand": "GCGTGATA", "E-score": 0.311}
{"Strand": "CCTTGCAC", "E-score": 0.26}
